{"data": "Published values from different studies", "note": "Parts stem from different laboratories: compare values within a part only."}
{"data": "Study 1", "target": "Interferon regulatory factor 5, full length, phosphomimetic (IRF5, Homo sapiens, UniProt Q13568-2, residues 1-514, S451D/S453D/S456D/S462D)", "method": "protein-binding microarray", "molecule type": "double-stranded DNA, one strand shown", "sample": "in vitro", "concentration": "940 nM top", "notes": "60-bp whole probe", "together with": "salmon DNA 0.4 mg/ml", "baseline": "random background probes", "direction": "higher = stronger binding", "constant ends, left off below": "GCCTAGCAC … GTCTTGATTCGCTTGACGCTGCTG"}
{"Oligonucleotide": "CCCGATATGCGGTAAGGGCGCGTGCTA", "fitted relative affinity": "-0.384 z-score"}
{"Oligonucleotide": "GACGATTTCAGATTCGAGACGTGCTAG", "fitted relative affinity": "0.143 z-score"}
{"Oligonucleotide": "CTCTATACCCATGTAGAGAGGTGCTAG", "fitted relative affinity": "-0.0808 z-score"}
{"Oligonucleotide": "GACGGTTTCGGGAGTGGGGACGTGCTA", "fitted relative affinity": "6.83 z-score"}
{"Oligonucleotide": "TTAGGTTTCGACTTACGGTTAGTGCTA", "fitted relative affinity": "9.77 z-score"}
{"Oligonucleotide": "TTCTTTATGCACTCTCTACATGTGCTA", "fitted relative affinity": "1.19 z-score"}
{"Oligonucleotide": "TTAGGTCTCCTTCTCCTTAAGTGCTAG", "fitted relative affinity": "0.492 z-score"}
{"Oligonucleotide": "TTAGAACCGAGTCTCGATTAGTGCTAG", "fitted relative affinity": "2.98 z-score"}
{"Oligonucleotide": "GACGGTTTCGGGACTGGGGCCGTGCTA", "fitted relative affinity": "6.78 z-score"}
{"Oligonucleotide": "TTAGTTATCAGTTTCGATTAGTGCTAG", "fitted relative affinity": "8.07 z-score"}
{"Oligonucleotide": "TTAGATATCGGAACTGGATTAGTGCTA", "fitted relative affinity": "0.337 z-score"}
{"Oligonucleotide": "GAAGGTTTCGGGTTTCGGGACGTGCTA", "fitted relative affinity": "7.95 z-score"}
{"Oligonucleotide": "TTAGGTATCGACTTTCGGATAGTGCTA", "fitted relative affinity": "5.66 z-score"}
{"Oligonucleotide": "TTAGTACTGAGACTGGATTAGTGCTAG", "fitted relative affinity": "-0.122 z-score"}
{"Oligonucleotide": "TCAAATTTGCTTTAGTCACTGTGCTAG", "fitted relative affinity": "-0.0235 z-score"}
{"Oligonucleotide": "TTAGGACTGGTTTTCCTTTAGTGCTAG", "fitted relative affinity": "0.308 z-score"}
{"data": "Study 2", "target": "RNA binding protein fox-1 homolog 2, RRM domain, GST-SBP tag (RBFOX2, Homo sapiens, UniProt O43251-10, residues 100-194)", "method": "RNA Bind-n-Seq", "molecule type": "RNA", "sample": "in vitro", "concentration": "365 nM", "notes": "natural RNA segment, single round, ends assumed", "baseline": "no-protein control", "direction": "higher = stronger binding", "constant ends, left off below": "GGGAGUUCUACAGUCCGACGAUC … UGGAAUUCUCGGGUGCCAA", "Residues (chain)": "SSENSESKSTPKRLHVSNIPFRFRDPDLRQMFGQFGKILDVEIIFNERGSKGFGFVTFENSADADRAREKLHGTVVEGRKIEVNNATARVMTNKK"}
{"Oligonucleotide": "CAUUUCAAAAGAAUUCCCCUCACAGGAGGAUGGCUGAGCAUCAAAGGAGGACAACCAUCUAUAACUUGGUGUCAUUGACAACUAUAUUAAUGUUUAUCCAGCUGCCGUAG", "RBNS enrichment (R)": 0.41}
{"Oligonucleotide": "UCUGUAUAUAGGGCACAGGUGAAGACAUUGUCCAAAGCUUAUUUAUUUAUCUAUUUAUUUACCCUGGGCGAGUAACCACACCAGUGGGGGGGAAAAAACUAAAAUGUGUG", "RBNS enrichment (R)": 0.618}
{"Oligonucleotide": "AAGCUCGGGAAGUGGCUGGCUGGCUGGCUGGCAUGUCUAGACGCCUGGUGAGUUAUCAGCCAGUUAAACUUGUAAGCCAGUUUUGUUUAUAAUAAAGAUAUAAGUGGAUU", "RBNS enrichment (R)": 1.73}
{"Oligonucleotide": "AGGGGUGGUGGAGGCAGUGCCCAUGCUGGGCUGAGCCUGCAGUUUUUGUGAGCUCUGGGCUUGUCUCCAUGGGAACAGGGGUGCCUUCUUAGUGAGCUCAUUUCACACAG", "RBNS enrichment (R)": 0.51}
{"Oligonucleotide": "AAAAGGAUGGAAUACCAAGGUCUUUUUAUUCCUCGUGCCCAGUUAAUCUUGCUUUUGUUGGUCAGAAUAGAGGGGUCAGGUUCUUAAUCUCUACACACCAACCCUUUCUU", "RBNS enrichment (R)": 0.414}
{"Oligonucleotide": "UGGUUUUGCUUUUUGUAUUGUCUAAUCUCUUUAAUGACUUCAUACUGUGUAAGGAAAAUUACUUUUGUAUUGUUUGUUGGUUAUUUCCAAAAUAACCACCUUGUAAAUAC", "RBNS enrichment (R)": 0.357}
{"Oligonucleotide": "UAAUAGCCCUUCCAUCUGGCAGUGGGGGUAGAAUACACUCUUGACAUUCUUGUCUCCUGCUUUAGAAUGCUAGUGUGUAUCUAUCAUGUAUGCAAUACUUUCCCCCUUUU", "RBNS enrichment (R)": 0.487}
{"Oligonucleotide": "AUUUUGAUGAGAUAACCUUCAUCUCGUUACUGAAAUAUCUAACUUCAGCUAGAUAUGAGCUAUGCAAGGAGCCAUAGGAAUAGCUAUAUGUUGGAAUGGCUUUAAUGUUG", "RBNS enrichment (R)": 1.62}
{"data": "Study 3", "target": "RING finger protein unkempt homolog, zinc fingers 1-6, GST-SBP tag (UNK, Homo sapiens, UniProt Q9C0B0, residues 30-357)", "method": "RNA Bind-n-Seq", "molecule type": "RNA", "sample": "in vitro", "concentration": "not given", "notes": "RNA with constant flanks, human-mouse chimeric sites, ends assumed", "baseline": "input RNA pool", "direction": "higher = stronger binding", "constant ends, left off below": "GGGAGUUCUACAGUCCGACGAUC … CAACAGAGGAUUGAGCAUCA", "Construct (chain)": "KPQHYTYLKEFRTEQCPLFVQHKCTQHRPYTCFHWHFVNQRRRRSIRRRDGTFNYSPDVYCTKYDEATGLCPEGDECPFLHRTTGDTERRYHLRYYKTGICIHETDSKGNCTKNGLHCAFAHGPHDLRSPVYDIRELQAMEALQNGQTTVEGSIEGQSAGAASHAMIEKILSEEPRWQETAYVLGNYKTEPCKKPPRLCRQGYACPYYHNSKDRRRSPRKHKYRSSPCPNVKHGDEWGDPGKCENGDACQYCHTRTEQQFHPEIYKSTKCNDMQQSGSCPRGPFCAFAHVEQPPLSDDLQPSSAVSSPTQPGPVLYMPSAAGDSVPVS"}
{"Oligonucleotide": "UAUAUCACCAAUGUCCUACAAAAUCCUGAUUUGGCUCUGAGAAUGGCUGUGCGGAACAACUUAGCUGGUGCUGAAGAACUCUUUGCCCGGAAAUUUAAUGCUCUCUUCGCCCAGGGAAAC", "bound/input enrichment [ratio]": 0.678}
{"Oligonucleotide": "CCAAGUGAUUCAUCCCAAGGACAGGCCACCCCAUUUGAUGCCUGGACUGAUGACAGUAUGGAAGGGCCUAGUCAAAAUGUUGAAGCUGAGUCAAUUCAGGAUGCCAUGCAUAUGGCAGAG", "bound/input enrichment [ratio]": 0.162}
{"Oligonucleotide": "CGCGUCCUCUCGCUGCUCCUGCGGGGCAGCUGGGAACCAUUCCGGGACUGGUACCCUGCACACAGCCGCCUCUUCGAUCAAGCUUUCGGGGUGCCCCGGUUGCCCGAUGAGUGGUCGCAG", "bound/input enrichment [ratio]": 0.0694}
{"Oligonucleotide": "AAAGAGUGGAUAGAGUGUGCACACGGGAUCGGUGGGACCCGGGCGAAGAAAGAGUGCAAGAUAGAGUAUGAUGAUUUCGAAGAGUGCUUGCUUCGGUACAAAACGAUGAGGCGAAUGCAU", "bound/input enrichment [ratio]": 0.719}
{"Oligonucleotide": "CAGGGCAUCAUCUCUCGUGCUGUUAGACACCUGUUCAAGAGUAUUGAUGAGAAAAAGACCUCAGCGAUUAAAAACGGGCUGCCCCCUCCAGAUUUUAAAGUGAAUGCCCAAUUCUUAGAG", "bound/input enrichment [ratio]": 0.605}
{"Oligonucleotide": "GCGGCAGAAUCAUGGAGGACAUAAUGCAGCUCCCCAAAGCGCGCGUCAACGCCAGCAUGUUACCACAGUAUAUCGACCGGCCCGUGUGCUUCGUAGGGAGGCUGGAAAAGAUUCAUCCCA", "bound/input enrichment [ratio]": 0.189}
{"Oligonucleotide": "UCAGGAACCCAGACAAACAUGAAUGUAAAUGAAGUCAUUAGCAACAGAGCAAUUGAAAUGUUAGGAGGUGAACUUGGCAGCAAGAAGCCUGUGCAUCCCAAUGAUCAUGUUAAUAAAAGC", "bound/input enrichment [ratio]": 0.277}
{"Oligonucleotide": "AAUUUCCUGUCAUACUUUUUAGACAUUGCCAUAGGUAUUACAGAGCACCUGGCCACAUUCUAGGUUUGUGUUAUUUCUCAGCUAUGGAUAUGAUCAAAGAGUGAAAAUGCUUAACUAAUG", "bound/input enrichment [ratio]": 0.827}
{"data": "Study 4", "target": "Histone acetyltransferase KAT6A, winged helix 1, GST fusion (KAT6A, Homo sapiens, UniProt Q92794, residues 1-85)", "method": "protein binding microarray", "molecule type": "double-stranded DNA, one strand shown", "sample": "in vitro", "concentration": "not given", "notes": "8-mer, flanks averaged, mean of 2 arrays, mostly near background", "baseline": "not given", "direction": "higher = stronger binding", "Residues (chain)": "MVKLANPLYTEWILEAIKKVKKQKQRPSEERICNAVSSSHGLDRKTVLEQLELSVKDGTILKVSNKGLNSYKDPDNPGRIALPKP"}
{"Oligonucleotide": "CTTCAACA", "E-score": -0.142}
{"Oligonucleotide": "GACTCCGA", "E-score": 0.104}
{"Oligonucleotide": "AGCATGTA", "E-score": -0.153}
{"Oligonucleotide": "AACAGAGG", "E-score": -0.17}
{"Oligonucleotide": "CAGTACTG", "E-score": 0.0483}
{"Oligonucleotide": "AGAAGTAT", "E-score": -0.0639}
{"Oligonucleotide": "ATGCGATG", "E-score": 0.0331}
{"Oligonucleotide": "ATGTTAGC", "E-score": -0.0443}
{"Oligonucleotide": "GTAGAATA", "E-score": -0.144}
{"Oligonucleotide": "AGGCACTA", "E-score": -0.0954}
{"Oligonucleotide": "CCTACTAG", "E-score": -0.159}
{"Oligonucleotide": "AAGGGTAA", "E-score": -0.113}
{"Oligonucleotide": "GGGGAAAA", "E-score": -0.0844}
{"Oligonucleotide": "AGTATAAA", "E-score": 0.0935}
{"Oligonucleotide": "CTCTTAGC", "E-score": 0.0548}
{"Oligonucleotide": "CTTAAATA", "E-score": -0.111}
{"Oligonucleotide": "CAGCGTCA", "E-score": 0.0265}
{"Oligonucleotide": "CAGCTCTA", "E-score": -0.105}
{"Oligonucleotide": "CTGCACCC", "E-score": -0.159}
{"Oligonucleotide": "AAAGAGCG", "E-score": 0.186}
{"note": "A few entries again (study 4):"}
{"Oligonucleotide": "GGGGAAAA", "E-score": -0.0844}
{"Oligonucleotide": "AGTATAAA", "E-score": 0.0935}
{"Oligonucleotide": "CTCTTAGC", "E-score": 0.0548}
{"Oligonucleotide": "CTTAAATA", "E-score": -0.111}
{"Oligonucleotide": "CAGCGTCA", "E-score": 0.0265}
{"Oligonucleotide": "CAGCTCTA", "E-score": -0.105}
{"Oligonucleotide": "CTGCACCC", "E-score": -0.159}
{"Oligonucleotide": "AAAGAGCG", "E-score": 0.186}
